# Assay results of several laboratories.
# Each line is one published result; not all experiments were run side by side. “And” joins repeats or separate records; there may be more than shown. Numbers after ± are the reported error.
# Protein AF-9 with DOT1L: Protein AF-9, with DOT1L (Homo sapiens, UniProt P42568)
# Chain of UniProt P42568 (whole entry, looked up): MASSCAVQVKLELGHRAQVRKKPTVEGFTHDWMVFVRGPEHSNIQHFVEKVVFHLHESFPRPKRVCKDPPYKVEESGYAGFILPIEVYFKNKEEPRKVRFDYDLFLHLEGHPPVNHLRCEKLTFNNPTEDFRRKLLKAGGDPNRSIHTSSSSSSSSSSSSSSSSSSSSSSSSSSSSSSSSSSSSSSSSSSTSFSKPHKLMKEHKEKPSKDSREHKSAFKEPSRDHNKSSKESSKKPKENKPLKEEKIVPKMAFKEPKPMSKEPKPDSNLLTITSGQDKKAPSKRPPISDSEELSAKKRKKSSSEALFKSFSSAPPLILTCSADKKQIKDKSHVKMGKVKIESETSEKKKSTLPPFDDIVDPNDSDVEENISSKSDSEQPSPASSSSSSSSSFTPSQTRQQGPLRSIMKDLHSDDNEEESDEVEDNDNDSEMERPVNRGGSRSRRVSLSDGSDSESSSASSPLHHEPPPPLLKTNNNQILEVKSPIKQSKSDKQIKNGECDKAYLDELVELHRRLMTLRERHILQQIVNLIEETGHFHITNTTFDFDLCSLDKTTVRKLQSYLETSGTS
# CD274: Programmed cell death 1 ligand 1 (CD274, Homo sapiens, UniProt Q9NZQ7)
# Chain of UniProt Q8IWT6 (whole entry, unmodified, looked up): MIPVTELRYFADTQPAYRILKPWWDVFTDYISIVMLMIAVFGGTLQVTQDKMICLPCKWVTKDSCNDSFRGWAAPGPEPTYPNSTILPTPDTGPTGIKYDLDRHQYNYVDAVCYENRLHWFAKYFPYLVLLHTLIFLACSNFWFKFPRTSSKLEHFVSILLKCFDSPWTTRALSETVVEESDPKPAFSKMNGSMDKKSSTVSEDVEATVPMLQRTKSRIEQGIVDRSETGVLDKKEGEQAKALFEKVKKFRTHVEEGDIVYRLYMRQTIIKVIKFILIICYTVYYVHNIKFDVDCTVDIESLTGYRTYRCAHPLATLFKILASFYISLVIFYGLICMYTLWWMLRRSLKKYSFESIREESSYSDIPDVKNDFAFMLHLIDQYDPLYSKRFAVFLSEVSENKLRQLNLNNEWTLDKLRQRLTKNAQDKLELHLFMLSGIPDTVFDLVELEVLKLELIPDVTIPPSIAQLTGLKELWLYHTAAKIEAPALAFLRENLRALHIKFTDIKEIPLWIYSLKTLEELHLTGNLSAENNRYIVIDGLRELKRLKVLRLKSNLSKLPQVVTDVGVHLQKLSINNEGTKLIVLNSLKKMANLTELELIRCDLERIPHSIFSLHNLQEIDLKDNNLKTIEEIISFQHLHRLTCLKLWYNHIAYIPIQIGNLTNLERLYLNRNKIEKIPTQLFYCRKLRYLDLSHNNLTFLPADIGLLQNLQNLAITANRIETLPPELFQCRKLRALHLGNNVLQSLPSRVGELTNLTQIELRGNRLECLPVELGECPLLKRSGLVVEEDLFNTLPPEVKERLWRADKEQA
# Chain of UniProt Q9NZQ7 (whole entry, looked up): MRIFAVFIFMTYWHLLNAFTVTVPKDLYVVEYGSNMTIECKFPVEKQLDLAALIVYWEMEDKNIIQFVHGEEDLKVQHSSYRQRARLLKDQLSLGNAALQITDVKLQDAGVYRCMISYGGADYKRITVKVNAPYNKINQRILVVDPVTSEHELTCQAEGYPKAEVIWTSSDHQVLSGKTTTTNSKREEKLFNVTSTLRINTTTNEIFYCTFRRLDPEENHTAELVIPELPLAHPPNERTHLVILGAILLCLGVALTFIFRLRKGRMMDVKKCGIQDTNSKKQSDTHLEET
# Chain of UniProt P03956 (whole entry, looked up): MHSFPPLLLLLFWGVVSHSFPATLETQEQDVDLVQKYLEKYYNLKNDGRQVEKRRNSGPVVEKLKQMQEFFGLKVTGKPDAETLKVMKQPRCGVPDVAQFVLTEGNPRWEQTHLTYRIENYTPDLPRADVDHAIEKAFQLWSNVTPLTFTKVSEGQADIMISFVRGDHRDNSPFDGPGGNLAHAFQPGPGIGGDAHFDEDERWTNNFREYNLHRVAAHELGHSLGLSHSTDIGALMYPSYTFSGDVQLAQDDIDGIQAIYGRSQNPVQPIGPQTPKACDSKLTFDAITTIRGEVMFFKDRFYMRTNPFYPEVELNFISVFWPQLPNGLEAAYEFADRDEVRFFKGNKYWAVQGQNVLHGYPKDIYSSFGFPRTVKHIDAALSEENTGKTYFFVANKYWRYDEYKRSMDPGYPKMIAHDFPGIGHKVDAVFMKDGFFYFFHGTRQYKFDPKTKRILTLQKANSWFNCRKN
# Chain of UniProt O00408 (whole entry, looked up): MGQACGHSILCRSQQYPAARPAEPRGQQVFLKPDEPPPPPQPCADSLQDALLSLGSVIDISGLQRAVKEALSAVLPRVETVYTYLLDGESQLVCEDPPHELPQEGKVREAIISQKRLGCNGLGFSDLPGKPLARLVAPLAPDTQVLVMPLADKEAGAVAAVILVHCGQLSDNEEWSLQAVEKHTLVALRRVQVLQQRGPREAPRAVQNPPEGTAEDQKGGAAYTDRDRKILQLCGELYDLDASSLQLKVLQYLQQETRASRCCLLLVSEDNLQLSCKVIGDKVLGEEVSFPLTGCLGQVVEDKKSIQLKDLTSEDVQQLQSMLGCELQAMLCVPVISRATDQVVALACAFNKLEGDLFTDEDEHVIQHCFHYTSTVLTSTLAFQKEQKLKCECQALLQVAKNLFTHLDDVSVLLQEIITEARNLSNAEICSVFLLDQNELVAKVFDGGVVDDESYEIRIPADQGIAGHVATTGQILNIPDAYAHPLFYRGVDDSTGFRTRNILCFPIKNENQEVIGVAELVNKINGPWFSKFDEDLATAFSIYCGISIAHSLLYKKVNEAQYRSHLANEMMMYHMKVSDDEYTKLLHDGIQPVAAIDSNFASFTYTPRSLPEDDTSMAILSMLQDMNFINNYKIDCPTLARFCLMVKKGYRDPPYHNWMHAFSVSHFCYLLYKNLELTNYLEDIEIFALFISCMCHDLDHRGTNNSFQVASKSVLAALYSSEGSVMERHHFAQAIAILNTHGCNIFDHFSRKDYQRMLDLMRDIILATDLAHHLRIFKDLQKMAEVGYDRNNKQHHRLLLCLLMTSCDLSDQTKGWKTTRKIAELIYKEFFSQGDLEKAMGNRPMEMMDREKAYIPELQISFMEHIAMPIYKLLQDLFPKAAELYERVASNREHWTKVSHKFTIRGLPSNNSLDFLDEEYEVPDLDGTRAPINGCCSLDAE
# Chain of UniProt Q9UBF8 (whole entry, looked up): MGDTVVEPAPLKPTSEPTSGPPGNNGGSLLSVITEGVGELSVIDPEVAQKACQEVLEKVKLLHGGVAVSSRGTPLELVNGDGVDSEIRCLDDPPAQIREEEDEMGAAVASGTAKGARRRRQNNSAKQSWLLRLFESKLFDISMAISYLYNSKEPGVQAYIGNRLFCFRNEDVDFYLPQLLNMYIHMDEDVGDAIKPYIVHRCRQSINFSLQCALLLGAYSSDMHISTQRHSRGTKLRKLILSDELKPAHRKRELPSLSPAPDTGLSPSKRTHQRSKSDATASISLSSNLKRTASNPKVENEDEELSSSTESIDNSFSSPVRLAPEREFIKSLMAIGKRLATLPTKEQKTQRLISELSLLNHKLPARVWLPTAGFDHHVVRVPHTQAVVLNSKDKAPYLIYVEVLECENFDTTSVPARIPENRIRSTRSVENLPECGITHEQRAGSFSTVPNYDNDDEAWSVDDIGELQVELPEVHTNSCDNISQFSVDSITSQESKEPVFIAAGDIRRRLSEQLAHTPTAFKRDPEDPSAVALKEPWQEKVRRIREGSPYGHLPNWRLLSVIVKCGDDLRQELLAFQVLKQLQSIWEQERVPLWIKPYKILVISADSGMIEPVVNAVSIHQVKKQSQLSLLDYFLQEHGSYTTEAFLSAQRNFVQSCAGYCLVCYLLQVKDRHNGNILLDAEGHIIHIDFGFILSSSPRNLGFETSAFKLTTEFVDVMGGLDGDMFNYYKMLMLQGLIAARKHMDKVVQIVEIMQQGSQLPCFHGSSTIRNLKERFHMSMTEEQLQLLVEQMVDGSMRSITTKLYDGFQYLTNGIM
# Chain of UniProt P20618 (whole entry, looked up): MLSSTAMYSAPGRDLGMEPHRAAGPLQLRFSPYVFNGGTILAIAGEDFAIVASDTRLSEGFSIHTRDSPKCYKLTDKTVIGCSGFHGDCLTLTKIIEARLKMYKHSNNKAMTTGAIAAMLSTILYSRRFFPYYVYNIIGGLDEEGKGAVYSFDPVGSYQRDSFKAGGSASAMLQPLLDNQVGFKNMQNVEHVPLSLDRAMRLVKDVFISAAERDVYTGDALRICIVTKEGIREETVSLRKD
# Chain of UniProt Q9NTG7 (whole entry, looked up): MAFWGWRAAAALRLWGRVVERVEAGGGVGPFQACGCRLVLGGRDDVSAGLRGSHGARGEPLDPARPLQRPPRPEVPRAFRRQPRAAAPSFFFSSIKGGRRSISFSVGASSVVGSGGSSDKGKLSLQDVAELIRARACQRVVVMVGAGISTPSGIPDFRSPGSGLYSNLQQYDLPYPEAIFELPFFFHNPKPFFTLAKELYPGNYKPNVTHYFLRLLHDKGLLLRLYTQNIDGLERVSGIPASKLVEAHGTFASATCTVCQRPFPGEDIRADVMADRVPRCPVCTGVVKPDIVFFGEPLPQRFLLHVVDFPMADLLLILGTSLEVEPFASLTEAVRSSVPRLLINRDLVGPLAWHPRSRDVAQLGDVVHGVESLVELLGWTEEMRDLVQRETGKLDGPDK
# Chain of UniProt P48730 (whole entry, looked up): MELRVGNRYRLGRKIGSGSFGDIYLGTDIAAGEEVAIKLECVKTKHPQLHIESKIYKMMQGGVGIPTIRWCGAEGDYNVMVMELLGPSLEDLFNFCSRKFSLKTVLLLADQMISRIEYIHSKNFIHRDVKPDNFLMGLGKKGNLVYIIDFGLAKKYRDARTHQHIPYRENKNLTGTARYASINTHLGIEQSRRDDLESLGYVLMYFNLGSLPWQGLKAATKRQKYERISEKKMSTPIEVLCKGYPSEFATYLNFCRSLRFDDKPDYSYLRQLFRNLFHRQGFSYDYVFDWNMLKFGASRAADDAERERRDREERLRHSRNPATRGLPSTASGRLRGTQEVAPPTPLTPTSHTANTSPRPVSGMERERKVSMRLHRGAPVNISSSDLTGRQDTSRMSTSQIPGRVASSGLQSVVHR
Compound,target,assay,test system,setting,how to read,inhibition
O=C(NO)c1ccc(CN2CCCCc3ccccc32)c(F)c1,"Alpha-1B adrenergic receptor (ADRA1B, Homo sapiens, UniProt P35368)","radioligand binding, PDSP radioligand binding",,10 µM,,-5.21%
CCCC(=S)NCCCC[C@H](NS(C)(=O)=O)C(=O)N[C@H](C)C(=O)N[C@@H](CCCNC(=N)N)C(N)=O,"NAD-dependent protein deacetylase sirtuin-3, mitochondrial (SIRT3, Homo sapiens, UniProt Q9NTG7)","enzyme activity, inhibitor",,10 µM,,< 5%
COc1cc(-c2cc(C(C)=O)n3ccccc23)cc(OC)c1Cn1ccnc1,"PHIP, BD2 (Homo sapiens, UniProt Q8WWQ0)",,,1 µM,,-16.4%
Cc1ccc(S(=O)(=O)N[C@@H](CC(=O)NC(C)(C)C)C(=O)NCc2ccccc2)cc1,"Proteasome component C5/PSMB5 (Homo sapiens, UniProt P20618+P28074)",β5c proteasome activity,,100 µM,,≤ 50%
COc1ccc(OC)c(-c2cc(C(C)=O)n3ccccc23)n1,"Bromodomain-containing protein 9 (BRD9, Homo sapiens, UniProt Q9H8M2)",AlphaScreen,,1 µM,,79.2%
O=C(Nc1cccc2c(=O)cc(-c3nnn[nH]3)oc12)c1ccc(OCCCCc2ccccc2)cc1,"LRRC8A/LRRC8C (Homo sapiens, UniProt Q8IWT6+Q8TDW0, L134K/L136K)","ion current, whole-cell patch clamp",LRRC8-/- HCT cells,"1 µM, L134K/L136K mutant, +100 mV",,46.4% and 27.9% and 50.5% and 53% and 51.1% and 18.7%
CCNNC(=O)c1ccc(CN(CC(=O)NCc2ccccc2)C(=O)c2ccc(N(C)C)cc2)cc1,"Interstitial collagenase (MMP1, Homo sapiens, UniProt P03956)",enzyme activity,,10 µM,,no inhibition
CCc1nn(C)c2nc(-c3ccc(C(=O)O)cc3)nc(NCc3ccc(F)cc3)c12,"cGMP-dependent 3',5'-cyclic phosphodiesterase (PDE2A, Homo sapiens, UniProt O00408)",inhibitor,,"10 µM, mean of replicates, added: [3H]cAMP",baseline: control,36.4%
CCN(Cc1ccccc1C(F)(F)F)C(=O)C1CCN(S(=O)(=O)c2ccc3[nH]ncc3c2)CC1,rat rolipram binding site,radioligand binding,,"10 µM, added: rolipram",,4%
CC[C@@H]1[C@H](F)C(=O)N[C@@H]1COc1nccc2cc(C(N)=O)c(OC)cc12,"Phosphatidylinositol 4-kinase beta (PI4KB, Homo sapiens, UniProt Q9UBF8)","ATP-site probe binding, ActivX profiling",THP-1 cell lysate,0.2 mM,,-16.4%
CCN(CC)c1ccc(Nc2ccc3ncc(OCC4CCNCC4)nc3c2)cc1,Protein AF-9 with DOT1L,"DOT1L binding, AlphaLISA",,10 µM,,71%
Cc1c(COc2ccc(CN3CCCCC3C(=O)NCCCC(=O)N(C)CCCC34CCC(c5ccccc53)c3ccccc34)cc2Br)cccc1-c1ccccc1 (centres unmarked),CD274,"binding, inhibitor, HTRF",,1 µM,,8.5 ± 1.4%
CCN(CC)c1ccc(C2Nc3ccc(C(=O)c4ccccc4)cc3NC3=C2C(=O)CC(C)(C)C3)cc1 (centres unmarked),GABAA receptor,binding,,10 µM,,36%
Cc1cccc(-c2nc(C(O)C3=CCCCC3)[nH]c2-c2ccncc2)c1 (centres unmarked),"Casein kinase I isoform delta (CSNK1D, Homo sapiens, UniProt P48730)",kinase activity,,1 µM,,0%
CCN1CCN(Cc2ccc(NC(=O)c3ccc(C)c(Oc4ccnc5[nH]ccc45)c3)cc2C(F)(F)F)CC1,"Serine/threonine-protein kinase mTOR (MTOR, Homo sapiens, UniProt P42345)",,Huh-7,10 µM,,< 35%
Nc1cccc(-c2ccc3ncc(OCC4CCNCC4)nc3c2)c1,Protein AF-9 with DOT1L,"DOT1L binding, AlphaLISA",,10 µM,,10 to 30%
COc1nc(-c2cccc(-c3ccccc3)c2C)ccc1CNCCNC(=O)CCCCCCCCCCCN1CCN(CCNC(=O)c2cc3c(=O)n4cccc(C)c4nc3n(CCc3cccs3)c2=N)CC1,CD274,"binding, inhibitor, HTRF",,1 µM,,54.2 ± 3.1%

# A few entries again:
Compound,target,assay,test system,setting,how to read,inhibition
Cc1cccc(-c2nc(C(O)C3=CCCCC3)[nH]c2-c2ccncc2)c1 (centres unmarked),"Casein kinase I isoform delta (CSNK1D, Homo sapiens, UniProt P48730)",kinase activity,,1 µM,,0%
